Measurements from different studies.
A part holds a random share of what one study measured.

Block 1 — method: competition protein-binding microarray; form: double-stranded DNA, one strand shown; matrix: in vitro; concentration: 2 µM; added: Cbf1 competitor, 0.05 µM; direction: higher = stronger binding
Target: Phosphate system positive regulatory protein PHO4, full length, GST-tagged (PHO4, Saccharomyces cerevisiae, UniProt P07270, residues 1-312)
Setting: whole 60-bp probe, lowest competitor level
Target sequence (chain): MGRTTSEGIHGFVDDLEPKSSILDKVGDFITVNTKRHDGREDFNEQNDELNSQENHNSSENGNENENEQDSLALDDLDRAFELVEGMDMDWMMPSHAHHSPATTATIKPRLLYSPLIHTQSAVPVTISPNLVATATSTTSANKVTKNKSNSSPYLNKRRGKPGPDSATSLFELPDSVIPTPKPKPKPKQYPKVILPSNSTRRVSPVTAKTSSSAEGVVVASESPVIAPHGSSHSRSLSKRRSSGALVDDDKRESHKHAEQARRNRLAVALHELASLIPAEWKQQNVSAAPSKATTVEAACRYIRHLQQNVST
`CTAACGAAGGTTTGCCCAGTGGGTGACAAGCCAAGTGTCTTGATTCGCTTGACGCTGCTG` has a fluorescence intensity of 3840 a.u.
The fluorescence intensity of `CTAACGAAGGTTTGGACTGTGGGTGACAAGCCAAGTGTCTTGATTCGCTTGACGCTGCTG` is reported as 3360 a.u.
`AAAGCGGTAATTTGGTCGGTGGGTGCAGATATCTATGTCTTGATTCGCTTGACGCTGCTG` gave a fluorescence intensity of 4200 a.u.
With `CCGACGTTGGCTTATTATGTGACGGATTGTTTTCAGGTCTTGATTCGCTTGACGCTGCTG` the fluorescence intensity was 3370 a.u.
`CTAACGAAGGTTTGTGTGGTGGGTGACAAGCCAAGTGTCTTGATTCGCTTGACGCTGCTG` gave a fluorescence intensity of 4540 a.u.
The fluorescence intensity of `TCGAGCCAGATCCCGCTCGTGGGACTGTTCATTCTGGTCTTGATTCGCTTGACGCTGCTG` is reported as 8710 a.u.
For `CTTCCTTCCAGAGCCCGCGTGCTAATGCAGAGTGGTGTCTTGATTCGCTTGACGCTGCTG`, the fluorescence intensity was 11500 a.u.
`TTGTTTCATCCAGGGTACGTGGCCGCACTTGTCAATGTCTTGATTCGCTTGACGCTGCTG` gave a fluorescence intensity of 8440 a.u.

Block 2 — method: RNA Bind-n-Seq; form: RNA; matrix: in vitro; concentration: 365 nM; relative to: no-protein control; direction: higher = stronger binding
Target: RNA binding protein fox-1 homolog 2, RRM domain, GST-SBP tag (RBFOX2, Homo sapiens, UniProt O43251-10, residues 100-194)
Setting: natural RNA segment, single round, ends assumed
Construct (chain): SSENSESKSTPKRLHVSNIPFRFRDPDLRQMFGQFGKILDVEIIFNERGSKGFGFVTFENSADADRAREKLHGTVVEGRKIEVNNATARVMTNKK
`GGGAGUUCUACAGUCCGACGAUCCCAAGUGUCCAGCCUGGCACUUCCCAUUCAGGCCACCUGCUUUGGGUCAACAGUUCCUUUGCCAGCAGCAUCUCCUAAAUUGUAAGGACUCUGUCCACCGGGGCCCUCCCUGGAAUUCUCGGGUGCCAA` — result for “RBNS enrichment (R)”: 0.718.
For `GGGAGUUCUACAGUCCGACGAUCAUUGUGACCAGUCACGUUCUAUCACCAGGCACUGUCUUGUCUUUGCCCUUGCCUUUUCUGUAACUCACCAUUUAUUGUAUUUACAAAUCUAGUAAGGGUUUUGAUCACACUGGAAUUCUCGGGUGCCAA`, “RBNS enrichment (R)” read 0.237.
Under “RBNS enrichment (R)”, `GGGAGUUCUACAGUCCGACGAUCAACAGCCUCCUCCAGCCCUGCUUUAGGAUGACACAAUGAAUAACACCUAGGCAUAGAAACCAGUCUCUUUGGUUUGUUUGUAUUAUGUUCUACAAUAUUAAAGAUCUAAAUGGAAUUCUCGGGUGCCAA` is recorded as 0.51.
For `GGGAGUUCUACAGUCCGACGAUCAAAUGUCCAGGCUGGUGAAGAUCCGCUGAGCAAGAGCCCUGGUGUGGGGAAAGGGAGGUCAGAGUACCAGGAACUGCUGAUGUCUGCUCUAAAGUACUUGAGUGGUGCUAUGGAAUUCUCGGGUGCCAA`, “RBNS enrichment (R)” read 0.766.
`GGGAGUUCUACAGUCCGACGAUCACAAAGAAAGCUAAGCUGUUGUACAUAUUUGUAGUUGGCUGUGCAUGGUACAAAUUUAUUAAUAUGAAGAAAUGCAAAAUGUAUUGCUUUUGAUAUUUCUCUUCCGAGAUUGGAAUUCUCGGGUGCCAA` — result for “RBNS enrichment (R)”: 8.5.
`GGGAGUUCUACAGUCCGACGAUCUAUGCUAUGUUAGAAGUCCAGGCAGAGACAAUAAAACAUUCCUGUGAAAGGCACUUUUCAUUCCACUUUAACUUGAUUUUUUAAAUUCCCUUAUUGUCCCUUCCAAAAAAUGGAAUUCUCGGGUGCCAA`: “RBNS enrichment (R)” 1.51.
`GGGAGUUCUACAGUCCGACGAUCUAGAAACAGAUAGCAUUAAAGUACUUCCUUCCCACUCCUUUCUCUGGCUCUCUCUCCCCCACUUGUUCUGACUUAGGAUAAUGAUCUCUAUUUUGUUUGUUUCUCAAGUGUGGAAUUCUCGGGUGCCAA` — result for “RBNS enrichment (R)”: 0.578.

Block 3 — method: protein-binding microarray; form: double-stranded DNA, one strand shown; matrix: in vitro; concentration: 940 nM top; setting: 60-bp whole probe; added: salmon DNA 0.4 mg/ml; relative to: random background probes; direction: higher = stronger binding; constant ends, left off below: GCCTAGCAC … GTCTTGATTCGCTTGACGCTGCTG
Target: Interferon regulatory factor 5, full length, phosphomimetic (IRF5, Homo sapiens, UniProt Q13568-2, residues 1-514, S451D/S453D/S456D/S462D)
`CACGGTATCGACTATCGGGACGTGCTA` — result for “fitted relative affinity”: 4.57 z-score.
`GACCAACTGAGTCTCGAGACGTGCTAG` — result for “fitted relative affinity”: 0.996 z-score.
`TCACCCCTCTCATTCCAACTGTGCTAG` — result for “fitted relative affinity”: 1.25 z-score.
Under “fitted relative affinity”, `TTAGAACTCGGGTTTCGATTAGTGCTA` is recorded as 4.88 z-score.
`TGTGGTCTGTTTCTGATATGGTGCTAG` — result for “fitted relative affinity”: 0.466 z-score.

Single results of other studies
`PhoQ, residues 284 288 289 292 302 303 AGCYAI` gave a fold induction of 3.08 (PhoP, residues 12 14 15 18 19 SQCLL (Escherichia coli, UniProt P23836); Sort-seq, item: YFP reporter; E. coli; PhoQ-PhoP variant library, added: 10 µM Mg2+; relative to: high Mg2+ state, higher = stronger signaling).

For quick reference, copied from above (block 2):
Under “RBNS enrichment (R)”, `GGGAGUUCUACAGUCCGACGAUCAACAGCCUCCUCCAGCCCUGCUUUAGGAUGACACAAUGAAUAACACCUAGGCAUAGAAACCAGUCUCUUUGGUUUGUUUGUAUUAUGUUCUACAAUAUUAAAGAUCUAAAUGGAAUUCUCGGGUGCCAA` is recorded as 0.51.
For `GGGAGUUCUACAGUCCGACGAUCAUUGUGACCAGUCACGUUCUAUCACCAGGCACUGUCUUGUCUUUGCCCUUGCCUUUUCUGUAACUCACCAUUUAUUGUAUUUACAAAUCUAGUAAGGGUUUUGAUCACACUGGAAUUCUCGGGUGCCAA`, “RBNS enrichment (R)” read 0.237.
For `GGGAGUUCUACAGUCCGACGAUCAAAUGUCCAGGCUGGUGAAGAUCCGCUGAGCAAGAGCCCUGGUGUGGGGAAAGGGAGGUCAGAGUACCAGGAACUGCUGAUGUCUGCUCUAAAGUACUUGAGUGGUGCUAUGGAAUUCUCGGGUGCCAA`, “RBNS enrichment (R)” read 0.766.
